Results pooled from the literature.
Compare with care: the assays were run in different laboratories.
Technique: steady-state kinetics
B1: FMO3 E308G (Homo sapiens, UniProt P31513); chain GKKVAIIGAGVSGLASIRSCLEEGLEPTCFEKSNDIGGLWKFSDHAEEGRASIYKSVFSNSSKEMMCFPDFPFPDDFPNFMHNSKIQEYIIAFAKEKNLLKYIQFKTFVSSVNKHPDFATTGQWDVTTERDGKKESAVFDAVMVCSGHHVYPNLPKESFPGLNHFKGKCFHSRDYKEPGVFNGKRVLVVGLGNSGCDIATELSRTAEQVMISSRSGSWVMSRVWDNGYPWDMLLVTRFGTFLKNNLPTAISDWLYVKQMNARFKHENYGLMPLNGVLRKEPVFNDELPASILCGIVSVKPNVKEFTGTSAIFEDGTIFEGIDCVIFATGYSFAYPFLDESIIKSRNNEIILFKGVFPPLLEKSTIAVIGFVQSLGAAIPTVDLQSRWAAQVIKGTCTLPSMEDMMNDINEKMEKKRKWFGKSETIQTDYIVYMDELSSFIGAKPNIPWLFLTDPKLAMEVYFGPCSPYQFRLVGPGQWPGARNAILTQWDRSLKPMQTRVVGRLQKPCFFFHWLKLFAIPILLIAVFLVLT
B2: enzyme S124T (Arabidopsis thaliana, UniProt O82390); chain MNARALLCSSNIHSLYTSNRPPEKTSSSRSLRNLKPSPKSLRVWIYPRNRSSVFRVLVRSSDKSESSNSYYVEGDKVSGNNDVVSDSPSSIVLPWWEEFPKRWVIVLLCFSAFLLCNMDRVNMTIAILPMSAEYGWNPATVGLIQSSFFWGYLLTQIAGGIWADTVGGKRVLGFGVIWWSIATILTPVAAKLGLPYLLVVRAFMGVGEGVAMPAMNNILSKWVPVQERSRSLALVYSGMYLGSVTGLAFSPFLIHQFGWPSVFYSFGSLGTVWLTLWLTKAESSPLEDPTLLPEERKLIADNCASKEPVKSIPWRLILSKPPVWALISCHFCHNWGTFILLTWMPTYYHQVLKFNLMESGLLSVFPWMTMAISANAGGWIADTLVSRGFSVTNVRKIMQTIGFLGPAFFLTQLKHIDSPTMAVLCMACSQGTDAFSQSGLYSNHQDIAPRYSGVLLGLSNTAGVLAGVLGTAATGHILQHGSWDDVFTISVGLYLVGTVIWNLFSTGEKIID
B3: FMO3 V257M (Homo sapiens, UniProt P31513); chain GKKVAIIGAGVSGLASIRSCLEEGLEPTCFEKSNDIGGLWKFSDHAEEGRASIYKSVFSNSSKEMMCFPDFPFPDDFPNFMHNSKIQEYIIAFAKEKNLLKYIQFKTFVSSVNKHPDFATTGQWDVTTERDGKKESAVFDAVMVCSGHHVYPNLPKESFPGLNHFKGKCFHSRDYKEPGVFNGKRVLVVGLGNSGCDIATELSRTAEQVMISSRSGSWVMSRVWDNGYPWDMLLVTRFGTFLKNNLPTAISDWLYMKQMNARFKHENYGLMPLNGVLRKEPVFNDELPASILCGIVSVKPNVKEFTETSAIFEDGTIFEGIDCVIFATGYSFAYPFLDESIIKSRNNEIILFKGVFPPLLEKSTIAVIGFVQSLGAAIPTVDLQSRWAAQVIKGTCTLPSMEDMMNDINEKMEKKRKWFGKSETIQTDYIVYMDELSSFIGAKPNIPWLFLTDPKLAMEVYFGPCSPYQFRLVGPGQWPGARNAILTQWDRSLKPMQTRVVGRLQKPCFFFHWLKLFAIPILLIAVFLVLT
B4: UGT3A2 S435Y (Homo sapiens, UniProt Q3SY77); chain AKILTISTVGGSHYLLMDRVSQILQDHGHNVTMLNHKRGPFMPDFKKEEKSYQVISWLAPEDHQREFKKSFDFFLEETLGGRGKFENLLNVLEYLALQCSHFLNRKDIMDSLKNENFDMVIVETFDYCPFLIAEKLGKPFVAILSTSFGSLEFGLPIPLSYVPVFRSLLTDHMDFWGRVKNFLMFFSFCRRQQHMQSTFDNTIKEHFTEGSRPVLSHLLLKAELWFINSDFAFDFARPLLPNTVYVGGLMEKPIKPVPQDLENFIAKFGDSGFVLVTLGSMVNTCQNPEIFKEMNNAFAHLPQGVIWKCQCSHWPKDVHLAANVKIVDWLPQSDLLAHPSIRLFVTHGGQNSIMEAIQHGVPMVGIPLFGDQPENMVRVEAKKFGVSIQLKKLKAETLALKMKQIMEDKRYKYAAVAASVILRSHPLSPTQRLVGWIDHVLQTGGATHLKPYVFQQPWHEQYLLDVFVFLLGLTLGTLWLCGKLLGMAVWWLRGARKVKET
B5: Comt (Mus musculus, UniProt O88587); chain MLLAAVSLGLLLLAFLLLLRHLGWGLVAIGWFEFVQQPVHNLLMGGTKEQRILRHVQQHAKPGDPQSVLEAIDTYCSEKEWAMNVGDAKGQIMDAVIREYRPSLVLELGAYCGYSAVRMARLLPPGARLLTMEINPDYAAITQQMLDFAGLQDKVSILIGASQDLIPQLKKKYDVDTLDMVFLDHWKDRYLPDTLLLEECGLLRKGTVLLADNVIVPGTPDFLAYVRGSSSFECTHYSSYLEYMKVVDGLEKAVYQGPGSSPVKS
B6: CMBL (Homo sapiens, UniProt Q96DG6); chain MANEAYPCPCDIGHRLEYGGLGREVQVEHIKAYVTKSPVDAGKAVIVIQDIFGWQLPNTRYIADMISGNGYTTIVPDFFVGQEPWDPSGDWSIFPEWLKTRNAQKIDREISAILKYLKQQCHAQKIGIVGFCWGGTAVHHLMMKYSEFRAGVSVYGIVKDSEDIYNLKNPTLFIFAENDVVIPLKDVSLLTQKLKEHCKVEYQIKTFSGQTHGFVHRKREDCSPADKPYIDEARRNLIEWLNKYM
B7: UGT3A2 A344T (Homo sapiens, UniProt Q3SY77); chain AKILTISTVGGSHYLLMDRVSQILQDHGHNVTMLNHKRGPFMPDFKKEEKSYQVISWLAPEDHQREFKKSFDFFLEETLGGRGKFENLLNVLEYLALQCSHFLNRKDIMDSLKNENFDMVIVETFDYCPFLIAEKLGKPFVAILSTSFGSLEFGLPIPLSYVPVFRSLLTDHMDFWGRVKNFLMFFSFCRRQQHMQSTFDNTIKEHFTEGSRPVLSHLLLKAELWFINSDFAFDFARPLLPNTVYVGGLMEKPIKPVPQDLENFIAKFGDSGFVLVTLGSMVNTCQNPEIFKEMNNAFAHLPQGVIWKCQCSHWPKDVHLATNVKIVDWLPQSDLLAHPSIRLFVTHGGQNSIMEAIQHGVPMVGIPLFGDQPENMVRVEAKKFGVSIQLKKLKAETLALKMKQIMEDKRYKSAAVAASVILRSHPLSPTQRLVGWIDHVLQTGGATHLKPYVFQQPWHEQYLLDVFVFLLGLTLGTLWLCGKLLGMAVWWLRGARKVKET
UniProt Q9HAW9, sequence (whole entry, looked up): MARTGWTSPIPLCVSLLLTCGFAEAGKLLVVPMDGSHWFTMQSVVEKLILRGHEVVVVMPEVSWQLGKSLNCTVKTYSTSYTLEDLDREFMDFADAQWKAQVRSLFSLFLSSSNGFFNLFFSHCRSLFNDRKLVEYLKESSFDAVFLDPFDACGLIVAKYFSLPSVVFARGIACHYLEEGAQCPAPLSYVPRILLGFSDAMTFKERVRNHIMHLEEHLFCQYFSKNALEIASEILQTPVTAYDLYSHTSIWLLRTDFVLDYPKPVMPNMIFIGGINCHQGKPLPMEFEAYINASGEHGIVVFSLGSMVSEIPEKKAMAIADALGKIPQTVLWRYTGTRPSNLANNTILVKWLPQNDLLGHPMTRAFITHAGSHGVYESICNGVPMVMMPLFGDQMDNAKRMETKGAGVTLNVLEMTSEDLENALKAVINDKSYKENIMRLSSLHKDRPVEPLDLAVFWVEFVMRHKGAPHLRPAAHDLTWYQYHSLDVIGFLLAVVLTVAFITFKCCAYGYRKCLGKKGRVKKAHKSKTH
UniProt P11509, sequence (whole entry, looked up): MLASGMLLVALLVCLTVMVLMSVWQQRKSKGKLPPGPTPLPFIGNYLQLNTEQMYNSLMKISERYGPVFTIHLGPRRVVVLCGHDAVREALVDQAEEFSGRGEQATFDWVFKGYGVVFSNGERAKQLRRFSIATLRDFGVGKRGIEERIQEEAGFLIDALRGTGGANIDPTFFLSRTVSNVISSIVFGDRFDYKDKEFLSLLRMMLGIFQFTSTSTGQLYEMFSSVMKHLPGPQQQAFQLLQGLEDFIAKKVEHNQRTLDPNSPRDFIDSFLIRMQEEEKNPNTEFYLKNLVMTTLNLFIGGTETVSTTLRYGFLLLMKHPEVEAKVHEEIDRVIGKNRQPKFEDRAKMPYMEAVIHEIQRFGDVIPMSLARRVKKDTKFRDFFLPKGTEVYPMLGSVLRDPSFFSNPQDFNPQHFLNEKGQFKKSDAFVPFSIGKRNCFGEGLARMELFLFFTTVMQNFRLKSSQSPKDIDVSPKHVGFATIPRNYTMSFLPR
UniProt H6U1I8, sequence (whole entry, looked up): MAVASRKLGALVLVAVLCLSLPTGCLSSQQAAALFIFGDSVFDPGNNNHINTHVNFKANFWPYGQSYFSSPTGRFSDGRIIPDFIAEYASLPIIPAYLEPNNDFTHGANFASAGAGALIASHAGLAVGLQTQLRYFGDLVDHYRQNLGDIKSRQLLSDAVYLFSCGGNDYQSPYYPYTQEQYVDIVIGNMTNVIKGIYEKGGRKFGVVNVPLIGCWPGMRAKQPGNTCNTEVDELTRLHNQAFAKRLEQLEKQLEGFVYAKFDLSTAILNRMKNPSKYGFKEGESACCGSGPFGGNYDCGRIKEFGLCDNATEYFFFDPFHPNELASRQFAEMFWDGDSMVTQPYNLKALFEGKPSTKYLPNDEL
UniProt O60656, sequence (whole entry, looked up): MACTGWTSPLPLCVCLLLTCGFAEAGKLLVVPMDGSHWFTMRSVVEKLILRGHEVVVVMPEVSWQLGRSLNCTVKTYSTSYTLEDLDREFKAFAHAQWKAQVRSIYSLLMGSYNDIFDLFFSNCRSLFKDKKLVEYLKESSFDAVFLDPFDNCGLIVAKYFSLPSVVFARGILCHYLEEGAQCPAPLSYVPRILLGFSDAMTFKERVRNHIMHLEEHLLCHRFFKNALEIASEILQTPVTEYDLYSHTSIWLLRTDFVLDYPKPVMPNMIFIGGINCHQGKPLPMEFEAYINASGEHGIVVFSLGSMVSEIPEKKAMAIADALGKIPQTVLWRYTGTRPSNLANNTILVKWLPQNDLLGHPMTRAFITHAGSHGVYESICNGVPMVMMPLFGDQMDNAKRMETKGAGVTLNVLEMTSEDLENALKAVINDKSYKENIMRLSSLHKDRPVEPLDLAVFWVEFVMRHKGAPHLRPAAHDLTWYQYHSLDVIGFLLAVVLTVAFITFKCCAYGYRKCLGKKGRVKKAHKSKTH

| Molecule | substrate | matrix | pH | temperature | notes | added | Vmax/Km [µL/min/mg] |
| --- | --- | --- | --- | --- | --- | --- | --- |
| enzyme (Tanacetum cinerariifolium, UniProt H6U1I8) | C=C/C=C\CC1=C(C)[C@@H](O)CC1=O |  | pH 7.5 | 25 °C |  |  | 410 |
| CYP2A6 (Homo sapiens, UniProt P11509) | CN1C(=O)CC[C@H]1c1cccnc1 | microsomes | pH 6.7 |  | cotinine to COX, not purified |  | 0.044 |
| UGT1A8 (Homo sapiens, UniProt Q9HAW9) | COc1cc2c(cc1CC=C(C)C)C(=O)C[C@@H](c1ccc(O)cc1)O2 |  | pH 7.4 | 37 °C |  |  | 109 |
| B1 (FMO3 E308G) | CN1CCC[C@H]1c1cccnc1 | HEK293 microsomes |  | 37 °C | not purified | NADPH regenerating system | 0.0089 |
| B2 (enzyme S124T) | O=P(O)(O)O |  | pH 6.5 | 25 °C | apparent, not purified |  | 40 |
| UGT1A9 (Homo sapiens, UniProt O60656) | COc1cccc2oc(-c3ccccc3)c(O)c(=O)c12 |  | pH 7.4 | 37 °C |  |  | 24000 |
| B3 (FMO3 V257M) | CN1CCC[C@H]1c1cccnc1 | HEK293 microsomes |  | 37 °C | not purified | NADPH regenerating system | 0.0068 |
| B4 (UGT3A2 S435Y) | O=c1ccn([C@@H]2O[C@H](CO[P@@](=O)(O)O[P@@](=O)(O)O[C@H]3O[C@H](CO)[C@@H](O)[C@H](O)[C@H]3O)[C@@H](O)[C@H]2O)c(=O)[nH]1 |  | pH 7.4 | 37 °C | not purified | 1-OH-pyrene 16 µM, MgCl2 10 mM, alamethicin | 0.55 |
| B5 (Comt) | O=c1oc2c(O)c(O)ccc2cc1-c1nc2ccccc2s1 | MLS9 | pH 7.4 | 37 °C |  |  | 523 |
| B6 (CMBL) | CCCc1nc(C(C)(C)O)c(C(=O)OCc2oc(=O)oc2C)n1Cc1ccc(-c2ccccc2-c2nnn[nH]2)cc1 | lysate | pH 7.4 | 37 °C | not purified |  | 145 |
| B7 (UGT3A2 A344T) | O=c1ccn([C@@H]2O[C@H](CO[P@@](=O)(O)O[P@@](=O)(O)O[C@H]3O[C@H](CO)[C@@H](O)[C@H](O)[C@H]3O)[C@@H](O)[C@H]2O)c(=O)[nH]1 |  | pH 7.4 | 37 °C | not purified | 1-OH-pyrene 16 µM, MgCl2 10 mM, alamethicin | 1.5 |
